# Experimental data pooled from the literature.
# Each line is one published result; not all experiments were run side by side. ± marks the error that the study gave.
Structure (SMILES),cell line,assay,system,conditions,IC50
Cc1cc(C2CCCCC2)n(O)c(=O)c1,NIH3T3,resazurin,,125 cells per well,3.23 ± 0.485 µM
O=C1Nc2c(C(F)(F)F)cccc2C1(c1ccc(O)cc1)c1ccc(OC(F)(F)F)cc1 (stereo not shown),ERα-expressing cell lines,cell death,,mean over cell lines,0.034 µM
O=C1Cc2ccccc2N1,LAPC4,"AR transcriptional activity, antagonist, PSA promoter luciferase",,24 h,0.224 µM
Cc1cccc(-c2c3n(c4c(=O)[nH]nc(O)c24)CCn2cccc2-3)c1,PANC-1,"cell growth or viability, MTT",,48 h,65 µM
Cc1cc(C(=O)/C(=C/c2cc(Br)cs2)c2cc(Br)cs2)c(C(=O)N2CCCCC2)c(=O)[nH]1,human Fibroblast,"cell growth or viability, MTT",,72 h,> 10 µM
CCN(CC)Cc1cc2c(C)cc(=O)oc2c(C)c1O,NIH3T3,hyaluronan secretion,,72 h,100 ± 62 µM
O=c1[nH]nc(O)c2c(-c3ccc(Cl)cc3Cl)c3n(c12)CCn1cccc1-3,PANC-1,"cell growth or viability, MTT",,48 h,72.5 µM
COc1cc(C(=O)c2sc3c(C)cccc3c2NC(=O)CBr)cc(OC)c1OC,L1210,cell growth or viability,,24 h,0.25 µM
O=c1[nH]nc(O)c2c(-c3ccc([N+](=O)[O-])cc3)c3n(c12)CCn1cccc1-3,PANC-1,"cell growth or viability, MTT",,48 h,46.4 µM
COc1ccccc1-c1nccc(COc2ccccc2C[C@@H](Nc2ccnc3sc(-c4ccc(F)cc4)c(-c4ccc(OCCN5CCN(C)CC5)c(Cl)c4C)c23)C(=O)O)n1,NCI-H929,"cell viability, MTT",,"48 h, 10% CFS",0.011 µM
CC1(C)c2cc3cc(-c4ccc(O)cc4O)c(=O)oc3cc2OC1CO (stereo not shown),Hepa1c1c7,cell growth,,,> 100 µM
COc1ccc2c(N)c(C(=O)c3cc(OC)c(OC)c(OC)c3)oc2c1,L1210,cell growth or viability,,,0.042 µM
C=CCc1ccc(O)c(-c2ccc(O)c(CC=C)c2)c1,PANC-1,"cell proliferation, MTS",,"72 h, added: 10 µM BLM",2.51 µM
CC(C)C[C@H](NC(=O)[C@H](Cc1ccccc1)NC(=O)c1cnccn1)B(O)O,RPMI-8226,cell viability,,"48 h, added: EGCG 3800 nM",0.015 µM
Cn1cc(Nc2nccc(-c3ccc4c(c3)CN(C3COC3)CC[C@H]4NC(=O)c3cn(C(C)(C)C)nn3)n2)cn1,B cells,CD69 expression,human whole blood,"healthy donors, added: anti-IgD",0.087 µM
Nc1ncnc2c1ncn2-c1ccc(/C=N/NC(=O)c2ccccc2O)cc1,PANC-1,cell growth or viability,,72 h,> 10 µM
CCCCCCCCCCCCCCCC(=O)NCCC[N+](C)(C)CCCS(=O)(=O)[O-],SK-OV-3 eGFP-transfected,"cell viability, MTT",,24 h,120 µM
CC(=O)c1cc(C(=O)N[C@@H](C)Cn2ccc(-c3ccc(C#N)c(Cl)c3)n2)[nH]n1,LAPC4,"cell growth or viability, ATP luminescence",,,0.66 µM
COc1cc(C(=O)c2oc3c(OC)cccc3c2NC(=O)CCl)cc(OC)c1OC,L1210,cell growth or viability,,24 h,62.7 µM
O=c1cc(-c2ccccc2)oc2cc(O)cc(O)c12,MOLT-3,"cell growth or viability, ATP luminescence",,24 h,217 µM
C=C(C)/C=C1/C=CC(=O)C(C)=C1,LAPC4,"AR transcriptional activity, antagonist, PSA promoter luciferase",,24 h,5.62 µM
Brc1ccc2[nH]c(-c3ccccc3)cc2c1,HEK293 NF-κB luciferase reporter,"reporter gene, item: NF-κB",,"6 h, added: TNFα",2.4 ± 0.3 µM

# Excerpt of the above:
Structure (SMILES),cell line,assay,system,conditions,IC50
Cc1cccc(-c2c3n(c4c(=O)[nH]nc(O)c24)CCn2cccc2-3)c1,PANC-1,"cell growth or viability, MTT",,48 h,65 µM
O=C1Nc2c(C(F)(F)F)cccc2C1(c1ccc(O)cc1)c1ccc(OC(F)(F)F)cc1 (stereo not shown),ERα-expressing cell lines,cell death,,mean over cell lines,0.034 µM
O=C1Cc2ccccc2N1,LAPC4,"AR transcriptional activity, antagonist, PSA promoter luciferase",,24 h,0.224 µM
Cc1cc(C2CCCCC2)n(O)c(=O)c1,NIH3T3,resazurin,,125 cells per well,3.23 ± 0.485 µM
